Assay results pooled from the literature.
Each line is one published result; not all experiments were run side by side. Numbers after ± are the reported error.
DRD3: D(3) dopamine receptor (DRD3, Homo sapiens, UniProt P35462)
Sequence of UniProt P35462 (whole entry, looked up): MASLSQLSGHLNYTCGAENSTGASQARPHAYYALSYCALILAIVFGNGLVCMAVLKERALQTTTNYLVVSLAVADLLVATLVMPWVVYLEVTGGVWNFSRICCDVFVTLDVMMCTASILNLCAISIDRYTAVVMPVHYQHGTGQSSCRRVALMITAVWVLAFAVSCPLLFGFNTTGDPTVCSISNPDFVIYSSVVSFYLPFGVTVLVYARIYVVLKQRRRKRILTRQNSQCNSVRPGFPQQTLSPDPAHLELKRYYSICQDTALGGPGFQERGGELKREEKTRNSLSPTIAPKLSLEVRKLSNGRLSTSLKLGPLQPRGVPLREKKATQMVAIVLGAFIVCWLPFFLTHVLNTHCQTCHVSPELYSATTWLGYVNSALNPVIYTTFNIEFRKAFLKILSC
SLC10A1: Hepatic sodium/bile acid cotransporter (SLC10A1, Homo sapiens, UniProt Q14973)
Sequence of UniProt Q14973 (whole entry, looked up): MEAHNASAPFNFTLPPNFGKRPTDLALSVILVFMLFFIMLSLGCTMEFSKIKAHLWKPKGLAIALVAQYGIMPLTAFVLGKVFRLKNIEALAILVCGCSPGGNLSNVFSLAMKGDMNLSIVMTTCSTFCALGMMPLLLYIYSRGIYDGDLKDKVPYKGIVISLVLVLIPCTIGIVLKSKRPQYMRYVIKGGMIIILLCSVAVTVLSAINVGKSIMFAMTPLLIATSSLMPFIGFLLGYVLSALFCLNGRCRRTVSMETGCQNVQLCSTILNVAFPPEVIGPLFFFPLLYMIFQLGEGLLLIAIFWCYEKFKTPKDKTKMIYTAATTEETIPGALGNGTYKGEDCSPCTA
ESR1: Estrogen receptor (ESR1, Homo sapiens, UniProt P03372)
Sequence of UniProt P03372 (whole entry, looked up): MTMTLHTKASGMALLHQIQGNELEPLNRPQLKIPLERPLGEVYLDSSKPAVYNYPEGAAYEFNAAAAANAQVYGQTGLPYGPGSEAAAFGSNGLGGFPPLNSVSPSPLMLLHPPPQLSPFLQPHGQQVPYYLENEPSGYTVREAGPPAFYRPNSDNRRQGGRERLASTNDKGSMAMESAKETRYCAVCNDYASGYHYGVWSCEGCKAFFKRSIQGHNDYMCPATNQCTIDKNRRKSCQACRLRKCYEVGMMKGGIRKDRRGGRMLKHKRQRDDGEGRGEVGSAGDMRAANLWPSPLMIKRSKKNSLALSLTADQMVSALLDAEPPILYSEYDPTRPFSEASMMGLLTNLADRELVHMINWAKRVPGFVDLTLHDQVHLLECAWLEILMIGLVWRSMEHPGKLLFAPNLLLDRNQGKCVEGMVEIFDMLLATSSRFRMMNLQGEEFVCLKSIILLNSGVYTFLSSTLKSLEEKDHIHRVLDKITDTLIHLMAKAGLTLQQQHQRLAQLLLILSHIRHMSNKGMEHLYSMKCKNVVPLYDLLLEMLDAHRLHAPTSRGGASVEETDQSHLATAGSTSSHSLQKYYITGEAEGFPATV
RORC: Nuclear receptor ROR-gamma (RORC, Homo sapiens, UniProt P51449)
Sequence of UniProt P51449 (whole entry, looked up): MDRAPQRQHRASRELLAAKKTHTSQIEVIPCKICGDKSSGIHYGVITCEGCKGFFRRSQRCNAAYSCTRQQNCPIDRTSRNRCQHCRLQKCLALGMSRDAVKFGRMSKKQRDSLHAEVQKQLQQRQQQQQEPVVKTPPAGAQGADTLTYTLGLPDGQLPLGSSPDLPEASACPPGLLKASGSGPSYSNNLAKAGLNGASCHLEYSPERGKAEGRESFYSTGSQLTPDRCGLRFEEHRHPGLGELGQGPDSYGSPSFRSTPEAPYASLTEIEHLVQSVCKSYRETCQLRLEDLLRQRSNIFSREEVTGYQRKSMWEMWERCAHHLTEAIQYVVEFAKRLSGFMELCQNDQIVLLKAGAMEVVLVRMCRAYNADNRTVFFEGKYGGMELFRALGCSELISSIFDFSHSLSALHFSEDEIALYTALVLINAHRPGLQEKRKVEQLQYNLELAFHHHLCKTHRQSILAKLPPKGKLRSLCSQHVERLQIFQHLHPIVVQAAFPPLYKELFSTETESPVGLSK
CDK2 with cyclin A: Cyclin-dependent kinase 2, with cyclin A (CDK2, Homo sapiens, UniProt P24941)
CDK2: Cyclin-dependent kinase 2 (CDK2, Homo sapiens, UniProt P24941)
MBLAC2: MBLAC2 (Homo sapiens, UniProt Q68D91)
Sequence of UniProt Q68D91 (whole entry, looked up): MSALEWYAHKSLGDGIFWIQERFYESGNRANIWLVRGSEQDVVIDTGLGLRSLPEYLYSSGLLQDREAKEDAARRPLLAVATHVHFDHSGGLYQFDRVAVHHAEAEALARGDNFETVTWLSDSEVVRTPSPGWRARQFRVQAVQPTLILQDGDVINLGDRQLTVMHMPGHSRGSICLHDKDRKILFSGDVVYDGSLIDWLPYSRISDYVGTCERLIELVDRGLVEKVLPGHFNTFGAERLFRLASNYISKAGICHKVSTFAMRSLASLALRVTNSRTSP
Sequence of UniProt Q9P2K8 (whole entry, looked up): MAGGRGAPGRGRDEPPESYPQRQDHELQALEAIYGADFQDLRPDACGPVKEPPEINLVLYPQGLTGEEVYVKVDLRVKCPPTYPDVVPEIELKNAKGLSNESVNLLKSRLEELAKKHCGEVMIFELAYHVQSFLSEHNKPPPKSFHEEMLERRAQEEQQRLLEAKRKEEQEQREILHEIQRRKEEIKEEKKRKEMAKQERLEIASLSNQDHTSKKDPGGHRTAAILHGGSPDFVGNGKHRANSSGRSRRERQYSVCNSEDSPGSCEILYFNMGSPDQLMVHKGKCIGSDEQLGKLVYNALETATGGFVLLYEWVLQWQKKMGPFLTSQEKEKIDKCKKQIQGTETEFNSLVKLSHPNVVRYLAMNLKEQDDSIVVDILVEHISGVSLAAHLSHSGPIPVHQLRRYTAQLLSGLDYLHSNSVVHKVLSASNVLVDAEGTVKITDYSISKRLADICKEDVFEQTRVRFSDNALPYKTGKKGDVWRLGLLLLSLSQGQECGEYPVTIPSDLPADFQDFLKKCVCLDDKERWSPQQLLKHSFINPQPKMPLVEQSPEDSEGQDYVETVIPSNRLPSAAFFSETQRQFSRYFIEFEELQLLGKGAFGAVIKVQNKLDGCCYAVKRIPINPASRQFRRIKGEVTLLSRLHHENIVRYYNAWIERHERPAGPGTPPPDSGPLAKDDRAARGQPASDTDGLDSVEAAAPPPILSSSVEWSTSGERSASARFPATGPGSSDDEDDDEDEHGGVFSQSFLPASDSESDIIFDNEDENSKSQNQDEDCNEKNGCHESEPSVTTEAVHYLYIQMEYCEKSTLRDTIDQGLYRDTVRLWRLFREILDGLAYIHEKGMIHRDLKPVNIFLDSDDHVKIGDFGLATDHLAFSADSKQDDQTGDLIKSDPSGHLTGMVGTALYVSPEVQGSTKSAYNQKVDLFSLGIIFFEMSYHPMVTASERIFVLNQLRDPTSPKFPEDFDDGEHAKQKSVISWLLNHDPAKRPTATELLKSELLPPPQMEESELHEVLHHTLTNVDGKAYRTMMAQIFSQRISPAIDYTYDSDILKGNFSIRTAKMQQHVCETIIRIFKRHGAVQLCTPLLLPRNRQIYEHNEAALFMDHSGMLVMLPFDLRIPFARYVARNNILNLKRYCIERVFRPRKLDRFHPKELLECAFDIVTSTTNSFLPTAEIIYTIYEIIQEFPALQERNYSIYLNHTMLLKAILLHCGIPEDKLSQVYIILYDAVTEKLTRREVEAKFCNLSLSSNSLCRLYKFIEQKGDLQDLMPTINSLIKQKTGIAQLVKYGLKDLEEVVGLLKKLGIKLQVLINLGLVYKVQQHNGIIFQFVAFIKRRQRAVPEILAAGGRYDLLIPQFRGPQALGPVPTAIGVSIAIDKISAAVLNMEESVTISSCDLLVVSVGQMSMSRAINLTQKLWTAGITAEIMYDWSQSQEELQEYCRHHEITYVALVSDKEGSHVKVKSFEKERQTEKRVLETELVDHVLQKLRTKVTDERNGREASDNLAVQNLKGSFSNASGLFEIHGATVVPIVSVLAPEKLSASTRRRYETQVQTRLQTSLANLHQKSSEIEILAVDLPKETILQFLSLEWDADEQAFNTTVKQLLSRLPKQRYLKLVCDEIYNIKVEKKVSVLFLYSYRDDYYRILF
Sequence of UniProt Q96PF2 (whole entry, looked up): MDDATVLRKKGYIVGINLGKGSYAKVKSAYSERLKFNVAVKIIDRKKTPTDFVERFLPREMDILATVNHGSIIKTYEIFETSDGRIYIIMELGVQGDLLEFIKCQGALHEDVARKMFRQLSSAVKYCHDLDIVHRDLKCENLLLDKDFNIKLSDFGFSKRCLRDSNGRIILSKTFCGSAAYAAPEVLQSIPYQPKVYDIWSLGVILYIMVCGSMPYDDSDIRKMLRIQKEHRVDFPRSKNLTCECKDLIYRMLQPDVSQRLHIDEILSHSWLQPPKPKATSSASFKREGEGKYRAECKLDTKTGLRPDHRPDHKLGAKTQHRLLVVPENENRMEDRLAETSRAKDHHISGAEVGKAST
Sequence of UniProt P20309 (whole entry, looked up): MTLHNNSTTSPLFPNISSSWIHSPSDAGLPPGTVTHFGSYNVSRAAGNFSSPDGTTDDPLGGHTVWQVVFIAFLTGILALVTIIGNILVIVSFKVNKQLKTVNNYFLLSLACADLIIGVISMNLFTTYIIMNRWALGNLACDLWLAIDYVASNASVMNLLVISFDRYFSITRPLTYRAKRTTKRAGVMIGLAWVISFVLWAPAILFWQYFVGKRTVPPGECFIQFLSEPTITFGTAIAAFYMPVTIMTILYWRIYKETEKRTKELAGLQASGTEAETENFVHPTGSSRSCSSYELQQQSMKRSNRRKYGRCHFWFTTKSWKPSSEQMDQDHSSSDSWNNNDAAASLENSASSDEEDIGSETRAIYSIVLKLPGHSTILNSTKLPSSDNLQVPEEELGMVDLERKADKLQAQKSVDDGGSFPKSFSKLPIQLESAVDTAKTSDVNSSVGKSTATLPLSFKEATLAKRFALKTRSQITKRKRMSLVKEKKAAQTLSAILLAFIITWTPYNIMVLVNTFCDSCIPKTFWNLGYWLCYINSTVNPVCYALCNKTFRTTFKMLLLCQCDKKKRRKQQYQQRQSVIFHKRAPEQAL

For `COC(=O)[C@@H]1CCCN1C(=O)c1c(C)[nH]c(C)c1S(=O)(=O)Nc1ccc(C(F)(F)F)c(Cl)c1`, the IC50 was greater than 100 µM (DRD3; Go activation, antagonist, BRET; added: dopamine).
`CNC(=C[N+](=O)[O-])NCCSCc1ccc(CN(C)C)o1` gave a Ki of 339 ± 433 µM (SLC10A1; taurocholate uptake, inhibitor; NTCP-expressing HEK293; added: 10 µM taurocholate).
`COc1ccc(-c2cc(=O)c3c(O)cc(O[C@@H]4O[C@H](CO[C@@H]5O[C@@H](C)[C@H](O)[C@@H](O)[C@H]5O)[C@@H](O)[C@H](O)[C@H]4O)cc3o2)cc1` gave an EC50 of 0.104 µM (ESR1; array formation, agonist; ERα-GFP PRL-HeLa; 1 h).
`CN1CCN(c2ccc(Nc3ncc4cc(C#N)c(=O)n(C5CCCC5)c4n3)cc2)CC1` gave an IC50 of 4.41 µM (TSSK2 (Homo sapiens, UniProt Q96PF2)).
For `O=S(=O)(c1cccc(C(F)(F)F)c1)N1CCc2ccc(OCc3c(Cl)cncc3Cl)cc21`, the EC50 was 0.18 µM (RORC; IL-17 production, inverse agonist; HEK-293T; added: ursolic acid).
`CC(C)C(=O)Nc1ccc([N+](=O)[O-])c(C(F)(F)F)c1` has a Ki of 84.7 ± 2.2 µM (SLC10A1; taurocholate uptake, inhibitor; NTCP-expressing HEK293; added: 10 µM taurocholate).
With `Cc1nc2ncnn2c(O)c1NS(=O)(=O)c1ccc(Br)cc1` the Kd was greater than 100 µM (CDK2 with cyclin A).
`CC[C@@H]1[C@H](F)C(=O)N[C@@H]1COc1nccc2cc(C(N)=O)c(OC)cc12` has an IC50 of greater than 5 µM (EIF2AK4 (Homo sapiens, UniProt Q9P2K8); ATP probe binding, KiNativ profiling, refers to: GCN2 Lys2 probe site; THP-1 cell lysate).
For `O=C(CSc1nnc(-c2ccccc2O)n1-c1ccccc1)Nc1cccc(C(=O)O)c1`, the Kd was greater than 100 µM (CDK2; binding).
`O=C(CCCCCCNC(=O)c1cnc(N(c2ccccc2)c2ccccc2Cl)nc1)NO` gave a Kd of 1.55 µM (MBLAC2; inhibitor, competition pulldown; SW620 and MV4-11 lysate; 1 h).
With `O=C(O)[C@H]1O[C@@H](Oc2cc3oc(-c4ccccc4)cc(=O)c3c(O)c2O)[C@H](O)[C@@H](O)[C@@H]1O` the EC50 was 1.4 µM (ESR1; array formation, agonist; ERα-GFP PRL-HeLa; 1 h).
`CCCCN(CCCC)C(=O)c1c(C)[nH]c(C)c1S(=O)(=O)Nc1ccc(C(F)(F)F)c(Cl)c1` has an IC50 of greater than 100 µM (DRD3; Go activation, antagonist, BRET; added: dopamine).
`CN1CCN(CCCN2c3ccccc3Sc3ccc(Cl)cc32)CC1` gave a Ki of 280 ± 37 µM (SLC10A1; taurocholate uptake, inhibitor; NTCP-expressing HEK293; added: 10 µM taurocholate).
`CC[C@H](C)[C@H](NC(=O)[C@H](C)NC(=O)[C@H](CCC(=O)O)NC(=O)[C@H](CCC(N)=O)NC(=O)[C@H](CC(=O)O)NC(=S)Nc1ccc2c(c1)C(=O)OC21c2ccc(O)cc2Oc2cc(O)ccc21)C(=O)N[C@@H](CCC(N)=O)C(=O)N[C@@H](CC(=O)O)C(=O)N[C@@H](CC(C)C)C(=O)N[C@@H](Cc1c[nH]c2ccccc12)C(=O)N[C@@H](CCC(N)=O)C(=O)N[C@@H](Cc1c[nH]c2ccccc12)C(=O)N[C@@H](CCCNC(=N)N)C(=O)N[C@@H](CCCCN)C(=O)N[C@@H](COP(=O)(O)O)C(=O)N[C@@H](CC(C)C)C(=O)O` has a selectivity ratio of 62 (14-3-3 isoforms, human; binding, fluorescence anisotropy; baseline: KD weakest isoform over 14-3-3γ).
`COc1ccc(-c2nc(N3CCOCC3)c3sc(CN(C)c4ncc(C(=O)NO)cn4)cc3n2)cn1` has a Kd of 0.738 µM (MBLAC2; inhibitor, competition pulldown; SW620 and MV4-11 lysate; 1 h).
The EC50 of `COc1cc(O)c2c(=O)cc(-c3ccc(O)cc3)oc2c1` is reported as 0.903 µM (ESR1; array formation, agonist; ERα-GFP PRL-HeLa; 1 h).
For `O=S(=O)(c1cc(C(F)(F)F)ccn1)N1CCc2ccc(OCc3c(F)cccc3Cl)cc21`, the EC50 was 0.33 ± 0.05 µM (RORC; reporter gene, agonist, GAL4 luciferase reporter; added: ursolic acid 2 µM).
`Cc1[nH]c(C)c(S(=O)(=O)Nc2cc(Cl)c(C(F)(F)F)cc2Br)c1C(=O)N1CCC(F)(F)C1` gave an IC50 of greater than 100 µM (DRD3; Go activation, antagonist, BRET; added: dopamine).
`COc1cc(O)c2c(=O)c(O[C@@H]3O[C@H](CO)[C@@H](O)[C@H](O)[C@H]3O)c(-c3ccc(O[C@@H]4O[C@H](CO)[C@@H](O)[C@H](O)[C@H]4O)cc3)oc2c1` gave an EC50 of 4.17 µM (ESR1; array formation, agonist; ERα-GFP PRL-HeLa; 1 h).
For `COc1ccccc1-n1nnnc1SCC(=O)Nc1ccccc1SC`, the Kd was greater than 100 µM (CDK2; binding).
For `Cc1ccc(NC(=O)c2ccc(CN3CCN(C)CC3)cc2)cc1Nc1nccc(-c2cccnc2)n1`, the Ki was 673 ± 130 µM (SLC10A1; taurocholate uptake, inhibitor; NTCP-expressing HEK293; added: 10 µM taurocholate).
With `COc1ccc(C(=O)CSc2nnc(-c3ccc(OC)c(OC)c3)n2-c2ccccc2)cc1` the Kd was greater than 100 µM (CDK2; binding).
For `Oc1ccc2c(c1)OC[C@H]1c3cc4c(cc3O[C@@H]21)OCO4`, the EC50 was 1.24 µM (ESR1; array formation, agonist; ERα-GFP PRL-HeLa; 1 h).
For `C#C[C@]1(O)CC[C@H]2[C@@H]3CCC4=Cc5oncc5C[C@]4(C)[C@H]3CC[C@@]21C`, the Ki was 592 ± 187 µM (SLC10A1; taurocholate uptake, inhibitor; NTCP-expressing HEK293; added: 10 µM taurocholate).
`COc1ccc(-c2cc(=O)c3c(O)c(OC)c(OC)c(OC)c3o2)cc1OC` gave an EC50 of 1.4 µM (ESR1; array formation, agonist; ERα-GFP PRL-HeLa; 1 h).
With `CO/N=C(\C(=O)N[C@@H]1C(=O)N2C(C(=O)O)=C(CSc3nc(=O)c(=O)[nH]n3C)CS[C@H]12)c1csc(N)n1` the Ki was 1290 ± 4340 µM (SLC10A1; taurocholate uptake, inhibitor; NTCP-expressing HEK293; added: 10 µM taurocholate).
For `O=C(c1c[nH]cc1S(=O)(=O)Nc1ccc(C(F)(F)F)c(Cl)c1)N1CCC(F)(F)C1`, the IC50 was greater than 100 µM (DRD3; Go activation, antagonist, BRET; added: dopamine).
With `O=C(O)CC(=O)C(=O)O` the IC50 was greater than 1000 µM (HIF1AN (Homo sapiens, UniProt Q9NWT6, Y93A); enzyme activity, inhibitor; pH 7).
For `Cc1c(C(=O)N2CCC(F)(F)C2)c(S(=O)(=O)Nc2ccc(C(F)(F)F)c(Cl)c2)c(C)n1C`, the IC50 was greater than 100 µM (DRD3; Go activation, antagonist, BRET; added: dopamine).
`Cc1cccc(S(=O)(=O)N2CCc3ccc(OCc4c(F)cccc4Cl)cc32)c1` gave an EC50 of 0.5 ± 0.11 µM (RORC; reporter gene, agonist, GAL4 luciferase reporter; added: ursolic acid 2 µM).
With `Cn1cc2c(C(=O)O)ccc(NS(=O)(=O)c3ccc(OCC4CCC4)c(Cl)c3)c2n1` the EC50 was greater than 10 µM (CHRM3 (Homo sapiens, UniProt P20309); antagonist).
`Cc1[nH]c2cccc(C(=O)N3CCC(F)(F)C3)c2c1S(=O)(=O)Nc1ccc(C(F)(F)F)c(Cl)c1` gave an IC50 of greater than 100 µM (DRD3; β-arrestin recruitment, antagonist, PathHunter; added: dopamine EC80).
`COc1c(Cl)cccc1COc1ccc2c(c1)N(S(=O)(=O)c1cccc(C(F)(F)F)c1)CC2` gave an EC50 of 1.2 ± 0.24 µM (RORC; reporter gene, agonist, GAL4 luciferase reporter; added: ursolic acid 2 µM).
For `COc1ccc([C@@H]2CC(=O)c3c(O)cc(O)cc3O2)cc1O`, the EC50 was 1.52 µM (ESR1; array formation, agonist; ERα-GFP PRL-HeLa; 1 h).
For `O=S(=O)(c1cccc(C(F)(F)F)c1)N1c2cc(OCc3c(Cl)cncc3Cl)ccc2CC1C(F)(F)F` (stereo not shown), the EC50 was 0.095 µM (RORC; IL-17 production, inverse agonist; HEK-293T; added: ursolic acid).
With `COc1ccccc1NC(=O)CSc1nnc(-c2ccc(F)cc2)n1C` the Kd was greater than 100 µM (CDK2 with cyclin A).
`Cc1[nH]c(C)c(S(=O)(=O)N2CCC(F)(F)C2)c1C(=O)Nc1ccc(C(F)(F)F)c(Cl)c1` has an IC50 of greater than 100 µM (DRD3; β-arrestin recruitment, antagonist, PathHunter; added: dopamine EC80).
The AC50 of `O=C(COP(=O)(O)O)[C@@H](O)[C@H](O)[C@H](O)COP(=O)(O)O` is reported as 0.0224 ± 0.0143 µM (Pyruvate kinase PKM (PKM, Homo sapiens, UniProt P14618); enzyme activity, activator; SK-HEP1 cell lysate; added: 0.2 mM PEP, 2 mM ADP).
`CCCCOc1ccc(CC(=O)NO)cc1` has a Kd of greater than 30.2 µM (MBLAC2; inhibitor, competition pulldown; SW620 and MV4-11 lysate; 1 h).
`Cc1ccnc(NS(=O)(=O)c2ccc(NC(=O)c3cncc(Br)c3)cc2)n1` has a Kd of greater than 100 µM (CDK2 with cyclin A).
For `O=C(O)c1cn(C2CC2)c2cc(N3CCNCC3)c(F)cc2c1=O`, the Ki was 526 ± 399 µM (SLC10A1; taurocholate uptake, inhibitor; NTCP-expressing HEK293; added: 10 µM taurocholate).
For `Cn1c(COc2cccc3cccnc23)nnc1SCC(N)=O`, the Kd was greater than 100 µM (CDK2; binding).
`O=C(c1ccccc1)c1ccc2n1CCC2C(=O)O` (stereo not shown) has a Ki of 254 ± 193 µM (SLC10A1; taurocholate uptake, inhibitor; NTCP-expressing HEK293; added: 10 µM taurocholate).
`COc1cccc(NC(=O)CSc2nnnn2C)c1` has a Kd of greater than 100 µM (CDK2; binding).
The IC50 of `Cc1[nH]c(C)c(S(=O)(=O)Nc2ccc(C(F)(F)F)c(Cl)c2)c1C(=O)N1CCNCC1` is reported as greater than 100 µM (DRD3; β-arrestin recruitment, antagonist, PathHunter; added: dopamine EC80).
With `Oc1ccc([C@H]2COc3cc(O)ccc3C2)cc1` the EC50 was 0.0367 µM (ESR1; array formation, agonist; ERα-GFP PRL-HeLa; 1 h).
